Published values of several laboratories.
Every numbered part comes from another study and shows a few of its results, in no order. Substitutions count along the parent as printed.

Block 1 — target: CCNA2, cyclin fold, Cln2 fusion (human); method: yeast growth competition, sequencing; matrix: yeast; notes: strong parent motif; baseline: not given; direction: higher = stronger binding
Starting sequence: GMNC docking peptide (human); KNAKRNLSSEFAN
Substitution | normalised enrichment score
R5W | 0.362
F11P | -0.0213
A3V | 6.04
R5S | 0.689
A12W | 4.36
E10V | 4.02
N6M | 1.31
E10R | 1.71
S9K | 5.77
N2W | 3.57
S8N | 5.15
R5Y | 0.0862
A3R | 1.68
K4G | 1.04
S8K | 2.69
A12Q | 4.75
N2T | 6.1
N6H | 0.564
E10Q | 3.93
N6T | 1.7
S8L | 6.5
K4F | 4.14

Block 2 — method: universal PBM; form: double-stranded DNA, one strand shown; matrix: in vitro; concentration: not given; direction: higher = stronger binding
Target: Sal-like protein 4, full length isoform B (SALL4, Homo sapiens, UniProt Q9UJQ4-2, residues 1-616)
Notes: 8-mer, flanks averaged, mean of replicates
Oligonucleotide | E-score
CCGATCCA | -0.0958
CACTTTAC | 0.157
CAATGCGA | -0.0179
AATGCTGG | -0.0495
CATGACGC | -0.145
GCAGGTGA | -0.289
CTTTCCCC | -0.11
AACTTTGG | 0.0629
CAGCCGGC | -0.325
CTATAAAG | 0.191
AGAGACAT | 0.139
ACAGTCAA | -0.0151
AACCTGGG | -0.36
AACGACTA | 0.158
GGTTCTAA | 0.029
ATCTGAAT | 0.102
ACCCCCGC | -0.284
ATGGTTTA | 0.256
GGACAACA | -0.048
AGTGTGTG | -0.0401
GGTCCGGA | -0.249
GACGTCAC | -0.15
AGGCAGGC | -0.219
AAGATGGT | 0.0773
GCAGAGTA | 0.0604

Block 3 — method: RNAcompete; form: RNA; matrix: in vitro; concentration: 20 nM; notes: 7-mer, probes averaged, single round; baseline: mean of 7-mers; direction: higher = stronger binding
Target: PABPC1L2, full length, GST fusion (mouse, UniProt A0ABA7IW68)
Target sequence (chain): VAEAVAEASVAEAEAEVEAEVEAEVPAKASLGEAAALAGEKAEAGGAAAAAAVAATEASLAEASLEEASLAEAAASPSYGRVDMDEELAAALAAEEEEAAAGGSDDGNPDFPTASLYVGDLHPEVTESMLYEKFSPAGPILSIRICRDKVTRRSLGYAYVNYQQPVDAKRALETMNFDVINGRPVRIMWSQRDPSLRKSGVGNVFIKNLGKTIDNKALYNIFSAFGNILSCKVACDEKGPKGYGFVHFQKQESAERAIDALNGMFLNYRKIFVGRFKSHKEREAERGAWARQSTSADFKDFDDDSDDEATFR
Oligonucleotide | 7-mer Z-score
GGGUACG | -0.0301
CAACUGA | -0.012
UAGAGAG | -0.119
AACGGAU | 0.173
UCUACAC | -0.229
ACAAACU | 0.62
UUGCGCU | -0.224
GACCUCA | -0.11
GGUUUGU | -0.485
GGGGCUU | 0.173
GAAUAUU | -0.242
UCUGUCC | -0.507
GAAGAAC | 0.269
CGAUGGU | -0.0464
CGGGCAG | 0.416
UAAGAGA | 0.0134
AGAUGAA | -0.0554
AGCACCG | -0.166
CUUCUUA | -0.367
CCAUAAG | -0.226
UGAGGAU | -0.0663
GGCUGUG | -0.0808
AGUCCCC | -0.287
GUACAGG | 0.148
AAUUGUG | 0.177

Block 4 — method: protein-binding microarray; form: double-stranded DNA, one strand shown; matrix: in vitro; concentration: 940 nM top; notes: 60-bp whole probe; with: salmon DNA 0.4 mg/ml; baseline: random background probes; direction: higher = stronger binding; all sequences stand within: GCCTAGCAC … GTCTTGATTCGCTTGACGCTGCTG
Target: Interferon regulatory factor 5, full length, phosphomimetic (IRF5, Homo sapiens, UniProt Q13568-2, residues 1-514, S451D/S453D/S456D/S462D)
Oligonucleotide | fitted relative affinity [z-score]
TCAAGCATTACTTTAGGACTGTGCTAG | -0.163
TTAGAGATCAGACTGGATTAGTGCTAG | -0.707
CTCTGTCTGGGATGTAATTCCGTGCTA | 0.242
TTAGGTTTCGGGTTCCGGTTAGTGCTA | 10.2
TTAGATACCAGACTGGATTAGTGCTAG | -0.00585
GACGGGATCGGGTATCGGGACGTGCTA | 1.08
TAAGGTCTCGGACTGGGTTAGTGCTAG | 0.756
TGAGGTCTCGGTCTCGGTTAGTGCTAG | 3.74
GGCGGTTTCCTTATCCTGACGTGCTAG | 2.05
TTAGGGATCGGTATCGGTTAGTGCTAG | 4.69
TCACCTTGAACTTTGGCACTGTGCTAG | 0.136
ATTTTTTTCTAATTGAAATCGTGCTAG | 0.424
TCACCTCTTTCACTGGTACTGTGCTAG | 1.44
TTAGGTATCGTTTTCCTTTAGTGCTAG | 6.47
GACGGTCTCAGTCTCGGGACGTGCTAG | 1.79
TCATATTTTTTTCTAATACTGTGCTAG | 1.67
GACGGTTTCGGTTTCGGAACGTGCTAG | 14.1
GACGATTTCAGACTGGGGACGTGCTAG | -0.104
GACTATATCAGACTGGAGACGTGCTAG | -0.357

Block 5 — method: protein binding microarray; form: double-stranded DNA, one strand shown; matrix: in vitro; concentration: not given; baseline: not given; direction: higher = stronger binding
Target: Histone acetyltransferase KAT6A, both winged helices, GST fusion (KAT6A, Homo sapiens, UniProt Q92794, residues 1-181)
Notes: 8-mer, flanks averaged, mean of 2 arrays, mostly near background
Residues (chain): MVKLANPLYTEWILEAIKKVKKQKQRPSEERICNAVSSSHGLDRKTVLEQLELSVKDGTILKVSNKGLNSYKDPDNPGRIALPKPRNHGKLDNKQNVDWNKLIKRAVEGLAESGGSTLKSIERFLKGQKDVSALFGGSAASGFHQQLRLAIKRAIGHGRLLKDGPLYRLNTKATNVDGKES
Oligonucleotide | E-score
GCGTTCGA | 0.164
AATTGGCC | -0.152
CTTGTTGA | -0.0481
ACTTACAG | -0.136
ACGAATAG | -0.124
GACGGTGA | 0.107
GACTTTCC | -0.1
ATAATAGA | -0.0959
ACCCTCGT | -0.0763
TAATATAA | 0.0397
GTGCGCCA | 0.168
ATGCTCGG | -0.03
CTTTAGGA | -0.159
AACCTTGT | 0.0138
ACAACCGG | 0.177
AAGACTTC | -0.151
CGAGATGA | 0.0599
